Assay results collected from several papers.
Compare with care: the assays were run in different laboratories. ± gives the spread as reported.
metK 1-426: metK 1-426 (Sinorhizobium meliloti, UniProt Q92SI4)
B1: UGT1A9 (Homo sapiens, UniProt O60656); chain GKLLVVPMDGSHWFTMRSVVEKLILRGHEVVVVMPEVSWQLGRSLNCTVKTYSTSYTLEDLDREFKAFAHAQWKAQVRSIYSLLMGSYNDIFDLFFSNCRSLFKDKKLVEYLKESSFDAVFLDPFDNCGLIVAKYFSLPSVVFARGILCHYLEEGAQCPAPLSYVPRILLGFSDAMTFKERVRNHIMHLEEHLLCHRFFKNALEIASEILQTPVTEYDLYSHTSIWLLRTDFVLDYPKPVMPNMIFIGGINCHQGKPLPMEFEAYINASGEHGIVVFSLGSMVSEIPEKKAMAIADALGKIPQTVLWRYTGTRPSNLANNTILVKWLPQNDLLGHPMTRAFITHAGSHGVYESICNGVPMVMMPLFGDQMDNAKRMETKGAGVTLNVLEMTSEDLENALKAVINDKSYKENIMRLSSLHKDRPVEPLDLAVFWVEFVMRHKGAPHLRPAAHDLTWYQYHSLDVIGFLLAVVLTVAFITFKCCAYGYRKCLGKKGRVKKAHKSKTH
B2: enzyme (Bacillus pumilus, UniProt A8FFI9); chain EARSIAWSVDEFFKNREGTFVIQEVKEKSPWVYNKKRAKERFAPQSTFKVANALIGLQTGAVRDEYDIKYWDGVKREIDNWNRDHTLGSGMRDSVVWYYQAMARDIGEERMNHWVKAIHYGNKDISGGIDQFWLSSTLRISPIEQVRFLKQLYEETLPFDLKNMRTVKRMMVQEEEKHATLYGKTGSGSDIGWYVGFIKHEHKTYILATNIKGTGIEAKDITYRILKKYHLMEASV
Chain of UniProt P07271 (whole entry, unmodified, looked up): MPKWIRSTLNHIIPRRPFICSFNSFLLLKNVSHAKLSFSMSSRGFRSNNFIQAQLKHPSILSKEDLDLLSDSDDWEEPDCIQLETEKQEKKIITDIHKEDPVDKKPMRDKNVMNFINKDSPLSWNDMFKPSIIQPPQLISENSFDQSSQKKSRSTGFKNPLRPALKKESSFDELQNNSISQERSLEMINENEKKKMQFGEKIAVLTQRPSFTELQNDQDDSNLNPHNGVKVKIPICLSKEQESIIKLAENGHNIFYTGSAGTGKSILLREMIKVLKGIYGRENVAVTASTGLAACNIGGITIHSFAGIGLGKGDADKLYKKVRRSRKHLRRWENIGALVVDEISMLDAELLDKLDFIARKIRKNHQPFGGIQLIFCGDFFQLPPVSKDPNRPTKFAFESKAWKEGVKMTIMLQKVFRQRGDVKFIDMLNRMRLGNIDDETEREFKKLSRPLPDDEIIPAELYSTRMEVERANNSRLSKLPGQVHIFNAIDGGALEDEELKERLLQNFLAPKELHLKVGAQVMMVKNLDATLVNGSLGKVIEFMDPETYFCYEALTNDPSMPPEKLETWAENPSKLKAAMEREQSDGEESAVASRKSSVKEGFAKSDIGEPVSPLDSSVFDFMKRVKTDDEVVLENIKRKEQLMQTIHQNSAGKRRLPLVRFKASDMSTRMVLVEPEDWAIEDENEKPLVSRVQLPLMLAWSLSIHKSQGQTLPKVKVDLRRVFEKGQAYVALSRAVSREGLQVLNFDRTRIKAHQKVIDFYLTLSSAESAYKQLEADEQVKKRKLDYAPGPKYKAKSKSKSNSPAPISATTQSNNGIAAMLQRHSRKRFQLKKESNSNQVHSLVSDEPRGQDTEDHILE
Chain of UniProt P07766 (whole entry, looked up): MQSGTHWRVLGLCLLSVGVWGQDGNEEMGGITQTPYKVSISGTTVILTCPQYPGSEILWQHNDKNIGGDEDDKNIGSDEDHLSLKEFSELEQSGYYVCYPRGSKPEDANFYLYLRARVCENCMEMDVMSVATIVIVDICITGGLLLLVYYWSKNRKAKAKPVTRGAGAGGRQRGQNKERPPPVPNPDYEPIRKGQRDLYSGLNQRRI
Chain of UniProt O13988 (whole entry, looked up): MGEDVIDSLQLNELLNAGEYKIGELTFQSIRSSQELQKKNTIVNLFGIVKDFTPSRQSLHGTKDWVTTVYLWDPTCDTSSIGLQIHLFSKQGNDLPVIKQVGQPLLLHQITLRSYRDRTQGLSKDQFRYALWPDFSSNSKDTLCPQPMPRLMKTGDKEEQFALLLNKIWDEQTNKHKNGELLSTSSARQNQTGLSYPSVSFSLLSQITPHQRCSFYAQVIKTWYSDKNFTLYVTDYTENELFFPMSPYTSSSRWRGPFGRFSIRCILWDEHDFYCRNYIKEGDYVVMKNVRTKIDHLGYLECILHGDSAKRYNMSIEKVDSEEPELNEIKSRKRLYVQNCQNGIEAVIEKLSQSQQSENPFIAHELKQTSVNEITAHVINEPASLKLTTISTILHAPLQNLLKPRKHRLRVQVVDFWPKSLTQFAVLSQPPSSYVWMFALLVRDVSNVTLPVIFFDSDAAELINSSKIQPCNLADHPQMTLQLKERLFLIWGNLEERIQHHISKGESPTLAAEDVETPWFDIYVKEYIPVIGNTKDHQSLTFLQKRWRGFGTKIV

| Molecule | tested on | assay | system | conditions | quantity | value |
| --- | --- | --- | --- | --- | --- | --- |
| GCGGAGGCGTGTGCGCCAGCACAATTCCAAGGTGGAAACCGTGATCGCCCCCTGCACCGGAATGCAGCCCCCTTGGGCTATGCTCGGCACAGCAGACTGGTGACCGGAAGGGGCATGGGGACACCCTGGCGTGGAAGCTGGCGCGGCTGG (dsDNA (Lysobacter enzymogenes); blunt) | pilR 1-471 (Lysobacter enzymogenes, UniProt A0A5P2TY02) | MST | double-stranded DNA, one strand shown | – | Kd | 560 nM |
| CGGTNGATTC (ssDNA; THF abasic at position 5) | yedK 2-222 H160A (Escherichia coli, UniProt P76318) | ITC | – | – | Kd | 90 nM |
| GACTACGTACTGTTACGGCTCCATCTCTACCGCAATCAGGCCAGATCTGC / GCAGATCTGGCCTGATTGCGGTAGCGATGGAGCCGTAACAGTACGTAGTC (dsDNA; blunt; fluorescein on T26; T:C mismatch) | p44/p62 (Chaetomium thermophilum) | fluorescence anisotropy | – | Mg2+ 5 mM | Kd | 1230 nM |
| B1 (UGT1A9) | COc1ccc(-c2oc3ccc(OC)cc3c(=O)c2O)cc1 | steady-state kinetics | – | pH 7.4, 37 °C | Vmax/Km | 51000 µL/min/mg |
| B2 (enzyme) | CO/N=C(\C(=O)N[C@@H]1C(=O)N2C(C(=O)O)=C(COC(C)=O)CS[C@H]12)c1csc(N)n1 | steady-state kinetics | – | pH 7 | kcat | > 0.7 s⁻¹ |
| SIYNFEKL | OT-I CD8+ T cells | item: IFN-gamma, TNF-alpha | peptide | concentration not given, primed 5 d, OVA257 100 ng/mL restimulation, with: no TGF-beta1 | IFN-gamma+ TNF-alpha+ cells | 0.09% |
| AGTTGAGGGGACTTTCCCAGGC (dsDNA) | HMGB2 box A A17M (Homo sapiens, UniProt P26583) | fluorescence anisotropy | double-stranded DNA, one strand shown | – | Kd | 103 ± 20 nM |
| insulin degludec | – | ELISA | human, end-stage renal disease, serum | subcutaneous, 0.4 U/kg single dose, dosed after hemodialysis, geometric mean, non-dialysis profile | Cmax | 3.17 nM |
| IINFEKE | ERAP1 human wild type | activator | peptide | 100 µM, pH 8.0, 27 °C, with: L-AMC substrate | Hill coefficient | 2.4 |
| GNTTACGGTTACGGT (ssDNA; deoxyinosine at 2) | pot1 1-555 (Schizosaccharomyces pombe, UniProt O13988) | EMSA | – | – | Kd | 0.0028 ± 0.0001 nM |
| GTGTGTGTGGTG (ssDNA) | PIF1 residues 237-780 (Saccharomyces cerevisiae, UniProt P07271) | fluorescence anisotropy | – | – | Kd | 11 ± 2.2 nM |
| GUUACCCCAUGAUGCUCAGGUCCGCCGCAUCUCCUGGGUCGUGGGGUCGGUCGGCUGGCCUCGGACUUGCGGAUUCCUCGUGCUGCAACCGGACCAGUCGAC (structured RNA) | metK 1-426 | filter binding | – | – | Kd | 6.7 nM |
| CTGGAGTACAATTCCATTCCATTCCATTCCATTCCATTCCATTCCATTCCATTCCATTCCATTCCATTCCATTCCATTCCATTCCATTCCTAACTTTCTA (dsDNA) | F2 alpha-thrombin (Homo sapiens) | ITC | double-stranded DNA, one strand shown | pH 7.2 | Kd | 5980 nM |
| ATAGACTGGACTGTCGTCNGGAGNGGGGTAGAGTGGGGNTGGGGCTATGGGGCTAGCATCGGATACAGGTC (XNA; AEGIS dP at 19, 24, 39) | CD3E 23-207 (Homo sapiens, UniProt P07766) | flow cytometry | Jurkat.E6 | 37 °C, apparent, not purified | Kd | 44 ± 21 nM |
| AGCTGCCAGGCACCAGTGTCA / TGACACTGGTGCTTGGCAGCT (dsDNA; 21-bp, G-T mismatch, dT20 linker) | mutS fragment (Escherichia coli) | SPR | – | without BSA | Kd | 69 ± 4 nM |
| SIIVFEKL | OT-I CD8+ T cells | – | peptide | concentration not given, primed 5 d, OVA257 100 ng/mL restimulation, with: no TGF-beta1 | IFN-gamma+ cells | 71% |
| AGGATTGCGCAATAT (dsDNA; blunt, 5mC at CpA) | CEBPB 269-344 V285A (Homo sapiens, UniProt P17676) | fluorescence polarization | double-stranded DNA, one strand shown | – | Kd | 7 ± 2 nM |
| AAGCAGTGGTATCAACGCAGAGAAATATGTATGACAAGGAAGG / CCTTCCTTGTCATACAT (DNA duplex; 17 bp, 5' overhang 26 nt) | PIF1 full length assumed (Saccharomyces cerevisiae, UniProt P07271) | single-molecule PIFE | – | with: ATP 2 mM | Kd | 18.5 nM |
| GAGCUGGUGCAUCUAGCGGCUUUCUCCUCCCCAGCCGCUGCAGCAGCUGUUCCCCUCUGGAGGUUUGAAACCUUCACAACUGAAAGGGCCCAAGUUUCUUGUGGCCCUCUUUUUUU (structured RNA) | metK 1-426 | filter binding | – | – | Kd | 45.6 nM |
| GGGUAUCGUGCGCAAUUUUUUCAGAAUCGAAAGGUUCAAAGUACAAAUAAGCAUAUAAGGAAAAGAGAGAAUGGCUAAGGGGCAAUCUUUACAAGAUCCGUUC (structured RNA) | hfq fragment (Escherichia coli) | EMSA | – | – | Kd | 2 ± 0.6 nM |
| GAGUUGAGUUGAGUUGAGUUGAGUUGAGUUGAGUUGAGUUGAGUUGAGUUGAGUU (ssRNA; single strand) | mtrB full length assumed T30V/D39V (Bacillus subtilis, UniProt P19466) | filter binding | – | with: no tryptophan | Kd | 127 ± 5 nM |
| CATTATCCTAAACATAACTTAACTAGUTTAACTTAATTCTTCAATATACC / GGTATATTGAAGAATTAAGTTAAGCTAGTTAAGTTATGTTTAGGATAATG (dsDNA; blunt, dU at top 27, U:G mismatch) | MSH2/MSH6 (Homo sapiens) | EMSA | – | with: ADP 0.1 mM | Kd | 30.5 ± 0.6 nM |
| GAUCCUUGUCGUCCCUGCCUUGCAUACGAACCAGGUUGUUCCAGCAACCAUUCGGGCCACGAUGAGGAACCGACCGCGAUCCUGCUUCUCCGUAACCCCCAAAGGUUCUGGUGCCGGCGAUCCGACGGUCGGCGCCUUUGGCCGGGCGGCCGCCCGGCCAAAGGCAU (structured RNA) | metK 1-426 | filter binding | – | – | Kd | 12.4 nM |
| UAGUUUAGUUUAGUUUAGUUUAGUUUAGUUUAGUUUAGUUUAGUUUAGUUUAGUU (ssRNA; single strand) | mtrB full length assumed T30V (Bacillus subtilis, UniProt P19466) | filter binding | – | – | Kd | 136 nM |
| GGGAGGGAGGGAGAGGGA (ssRNA) | EXOSC3 fragment (Homo sapiens) | SPR | – | apparent | Kd | 2400 ± 1000 nM |
| IINFEKL | ERAP1 human L734R | activator | peptide | 100 µM, pH 8.0, 27 °C, with: L-AMC substrate | Hill coefficient | 1.6 |
